Measured values collected from several papers.
± gives the spread as reported.

Compound	test	test system	conditions	scale	endpoint	result
CC(C)C[C@H](NC(=O)[C@@H](N)Cc1c[nH]cn1)C(=O)N1CCC[C@H]1C(=O)N[C@@H](CO)C(=O)N[C@@H](Cc1ccc(O)cc1)C(=O)N[C@@H](CO)C(=O)N1CCC[C@H]1C(=O)N[C@@H](CO)C(=O)N1CCC[C@H]1C(=O)N[C@@H](CCC(N)=O)C(=O)O	LC-MS/MS	human plasma	37 °C	–	time to reach limit of detection	8 h
NCCCC(=O)OCC(=O)c1ccc(O)c(F)c1F.O=C(O)C(F)(F)F	photolysis at 300 nm	ammonium acetate buffered acetonitrile-water	pH 5.0, 0.01 mol/L buffer	–	quantum yield of disappearance	0.16
Oc1cccc(-c2cccc(O)n2)n1.[Cl-].[Cl-].[Ru+2].c1cnc2c(c1)c1c(c3cccnc32)OCCO1.c1cnc2c(c1)c1c(c3cccnc32)OCCO1	shake flask	octanol/phosphate buffer	pH 8.00	–	logD	2.1
CC1(C)C(=CC=C(C=CC2=[N+](CCC[N+](C)(C)C)c3ccc(S(=O)(=O)[O-])cc3C2(C)C)CCC(=O)[O-])N(CCC[N+](C)(C)C)c2ccc(S(=O)(=O)[O-])cc21	–	100% serum	pH 7.4	–	quantum yield	22.8%
O=C(NCCCN(CCCCN(CCCNC(=O)c1cccc(=O)n1[O-])C(=O)c1cccc(=O)n1[O-])C(=O)c1cccc(=O)n1[O-])c1cccc(=O)n1[O-].[89Zr+4]	radio-TLC	PBS	1 h, pH 7.4, 37 °C, added: Co^2+ 10-fold excess	–	intact complex	98.5 ± 2.2%
CC[C@H](C)[C@H](NC(=O)[C@H](CC(C)C)NC(=O)[C@H](Cc1c[nH]c2ccccc12)NC(=O)[C@H](C)NC(=O)[C@@H](NC(=O)[C@H](Cc1ccccc1)NC(=O)[C@H](CC(=O)O)NC(=O)[C@H](CCCNC(=N)N)NC(=O)[C@H](C)NC(=O)[C@H](C)NC(=O)[C@H](CC(C)C)NC(=O)[C@H](C)NC(=O)[C@H](CC(=O)O)NC(=O)[C@H](CC(C)C)NC(=O)[C@@H](NC(=O)[C@@H](NC(=O)[C@H](C)NC(=O)[C@H](CC(C)C)NC(=O)[C@H](CCC(=O)O)NC(=O)[C@H](CO)NC(=O)[C@H](CO)NC(=O)[C@H](Cc1ccccc1)NC(=O)[C@@H](NC(=O)CNC(=O)[C@H](CCC(=O)O)NC(=O)CNC(=O)[C@@H](N)Cc1c[nH]cn1)[C@@H](C)O)[C@@H](C)O)[C@@H](C)CC)[C@@H](C)CC)C(=O)N[C@@H](C)C(=O)N[C@H](C(=O)N[C@@H](CCCCN)C(=O)N[C@H](C(=O)N[C@H](C(=O)N[C@@H](CC(=O)O)C(=O)N[C@@H](CCCCN)C(=O)O)[C@@H](C)O)[C@@H](C)CC)[C@@H](C)O	immunoaffinity LC-MS/MS	healthy human subjects, plasma	subcutaneous, 10 mg once weekly, day 36 after 6 doses, steady state, geometric mean	–	AUClast	259 nM·h
CC(C)(O)c1ncc([S@](N)(=O)=NC(=O)Nc2c3c(cc4c2CCC4)CCC3)s1	–	healthy human subjects	oral, dose not given, higher doses	–	subjects with maculopapular or pruritic rash	10%
NCCCC(=O)OCC(=O)c1cc(F)c(O)c(F)c1F.O=C(O)C(F)(F)F	photolysis, item: rearranged acid appearance	aqueous HEPES buffer with LiClO4	pH 7.3	–	quantum yield	0.04
Cc1[nH]c(/C=C2\C(=O)Nc3ccc(F)cc32)c(C)c1NC(=O)CCN1CCN(C)CC1	–	dog plasma	40 ng/mL, 30 d frozen, -80 °C	–	accuracy deviation	-1.06%
Cc1ccc(C2=C(c3ccc([18F])cc3)C(=O)OC2(C)C)cc1	dynamic PET/CT	female nude mouse, SK-OV-3/COX-1 peritoneal tumour	retro-orbital, scan 0 to 9 min	–	time of maximal tumour uptake	~5 min
COc1cc(NC(C)=O)c2c(c1O)-c1c(OC)c(OC)cc3c1C(C2)N(C)CC3 (centres unmarked)	–	rat, plasma	5 µg/mL, 40 d, -20 °C, long-term storage	–	remaining compound	92 ± 10.4%
[2H]C([2H])([2H])NC(=O)c1ccc(N2C(=S)N(c3ccc(C#N)c(C(F)(F)F)c3)C(=O)C2(C)C)cc1F	–	male human, plasma	oral, 80 mg, single dose, fasted	–	MRT	169 h
Oc1ccc2ccccc2c1/N=N/c1ccccc1	–	rat whole blood extract	0.2 µg/L, 30 days, -20 °C, long-term storage	–	stability deviation	8.5%
COc1ccc(/C=C/c2ccc(-c3ccc(C)cn3)nc2)cc1	–	toluene	added: quinine bisulfate reference	–	fluorescence quantum yield	0.54
CC(=O)N[C@@H](CCCCN)C(=O)N[C@@H](CCCCN)C(=O)N[C@@H](CCCCN)C(=O)N[C@@H](CCCCN)C(=O)N[C@@H](CCCCN)C(=O)N[C@@H](CCCCN)C(=O)N[C@@H](CCCCN)C(=O)N[C@@H](CCC(N)=O)C(=O)N[C@@H](Cc1c[nH]c2ccccc12)C(=O)N[C@@H](CCC(N)=O)C(=O)N[C@@H](Cc1c[nH]c2ccccc12)C(=O)N[C@@H](CCC(N)=O)C(=O)N[C@@H](Cc1c[nH]c2ccccc12)C(=O)N[C@@H](CCC(N)=O)C(=O)N[C@@H](Cc1c[nH]c2ccccc12)C(=O)N[C@@H](CCC(N)=O)C(=O)N[C@@H](Cc1c[nH]c2ccccc12)C(=O)N[C@@H](CCC(N)=O)C(=O)N[C@@H](Cc1c[nH]c2ccccc12)C(N)=O	sedimentation velocity AUC	Tris buffer 20 mM	20 µM, 24 h, pH 7.4, 4 °C	–	number of subunits per assembly	14
O=c1nc(NO)ccn1[C@@H]1O[C@H](CO)[C@@H](O)[C@H]1O	RT-PCR, item: CYP3A9	rat, arthritis model, liver	oral, 80 mg/kg twice daily, 5 days	relative to: untreated arthritic rats	mRNA level	0.5 fold
CC(C)[C@H](NC(=O)CNC(=O)[C@H](CCC(N)=O)NC(=O)[C@H](C)N)C(=O)O	LC-MS/MS	human, male, plasma	intravenous, 30 mg/kg three times daily, day 3, first dose, 10 min infusion, geometric mean	–	clearance	867 mL/min/kg
CC(C)C[C@@H](NC(=O)[C@H](NC(=O)[C@H]1CCCN1)[C@H](C)O)C(=O)N[C@H](Cc1c[nH]cn1)C(=O)N[C@@H](C(=O)N[C@H](Cc1c[nH]cn1)C(=O)N[C@H](CC(N)=O)C(=O)N[C@H](CCCNC(=N)N)C(=O)N[C@H](CCCNC(=N)N)C(=O)N[C@H](CCCNC(=N)N)C(=O)N[C@H](CCCNC(=N)N)C(=O)N[C@H](CCCNC(=N)N)C(N)=O)[C@H](C)O	–	beagle dog, plasma	intravenous, 3 mg/kg, single dose	–	half-life	2.96 days
COc1cc(C)c(Cc2ccc(O)cc2)cc1[C@@H]1S[C@H](CO)[C@@H](O)[C@H](O)[C@H]1O	–	Japanese T2DM patients, urine	2.5 mg luseogliflozin, day 7, once daily	relative to: dose	urinary excretion 0-24 h	11.2 ± 2.13%
CCNC(=O)c1noc(-c2cc(C(C)C)c(O)cc2O)c1NC(=O)CCN1CCOCC1	–	CD1 nude mice, A-431 xenograft, plasma	intraperitoneal, 80 mg/kg	–	apparent volume of distribution	94600 mL/kg
CN1CCC[C@]1(C)/C=C/S(=O)(=O)NC(=O)Nc1c2c(cc3c1CCC3)CCC2	–	human, urine	oral, 100 mg single dose	–	percent of dose in urine	76.6%

Compound	test	test system	conditions	scale	endpoint	result
Cn1c(=O)oc2ccc(-c3ccc(CC(C#N)NC(=O)C4CNCCCO4)c(F)c3)cc21 (centres unmarked)	item: monocyte count increased	human volunteers	oral, dose not given	–	treatment-emergent adverse event incidence	3.7%
CCCC(CCC)NC(=O)c1ccc(OS(=O)(=O)O)c(OC)c1	–	female Sprague-Dawley rats, plasma	oral, 50 mg/kg of parent drug	relative to: 50 over 20 mg/kg dose	Cmax ratio	1.49
NCCCC(=O)OCC(=O)c1c(F)cc(O)cc1F.O=C(O)C(F)(F)F	photolysis, item: rearranged acid appearance	unbuffered water	–	–	quantum yield	0.15
NCC(=O)N1CCC[C@H]1C(=O)N1C[C@H](O)C[C@H]1C(=O)O	potentiometric titration	–	25 °C, MAH-3 complex, added: Fe(III)	–	log beta	-2.23
O=c1ccn([C@@H]2O[C@H](CO)[C@@H](O)[C@H]2F)c(=O)[nH]1	–	human liver S9	10 µM, 1 h, 37 °C	–	metabolic stability	stable
O=C(O)/C=C/c1ccc(NC(=O)C2(NC(=O)c3ccc4c(C5CCCCC5)c5n(c4c3)CC(=O)Nc3ccccc3-5)CCCC2)cc1	–	rat	intravenous, 2 mg/kg	–	clearance	13 mL/min/kg
CCCC1OC2CC3C4CCC5=CC(=O)C=CC5(C)C4C(O)CC3(C)C2(C(=O)COC(=O)CN)O1 (centres unmarked)	–	rat lung homogenate	200 µg/mL, 37 °C	–	time to near-complete hydrolysis	≤ 12 h
Cc1cc(O)c2c(c1)C(=O)c1cc(O)cc(O)c1C2=O.Cc1cc(O)c2c(c1)C(=O)c1cc(O)cc(O)c1C2=O.Cc1nc(C)c(C)nc1C	dynamic vapor sorption	–	25 °C, 90% relative humidity	–	moisture absorption	< 0.06%
C#CCOc1ccc(/C=C2\SC(=O)N(CC(=O)NCc3ccccc3)C2=O)cc1	inverse Kirkwood-Buff integrals	binary solvent mixture	298.15 K, mole fraction x1 0.40	–	Kirkwood-Buff integral G2,3	-373 cm³/mol
CN(C)c1ccc(-c2nc3ccc(OCCCCCN4CCN5CCN(CC4)CC(=O)[O][Al]([18F])[O]C(=O)C5)cc3s2)cc1	–	ICR mouse	intravenous, dose not given, 10 min	–	stomach uptake	1.05 ± 0.26 % injected dose/organ
CCCC[C@H](NC(=O)CNC(=O)CNC(=O)CN1CCN(CC(=O)O)CCN(CC(=O)O)CCN(CC(=O)O)CC1)C(=O)N[C@H]1CC(=O)NCCCC[C@@H](C(N)=O)NC(=O)[C@H](Cc2c[nH]c3ccccc23)NC(=O)[C@H](CCCNC(=N)N)NC(=O)[C@@H](Cc2ccccc2)NC(=O)[C@H](Cc2c[nH]cn2)NC1=O [copper-64 labelled]	–	female C57 mouse, B16/F1 melanoma	intravenous, 0.037 MBq, 24 h	relative to: tumour over stomach	uptake ratio	4.93
Cc1cnc(Nc2cc(C)c(C)c(C)c2)nc1Nc1ccc2oc(=O)[nH]c2c1	–	rat, whole lung	intratracheal, dose not given, 24 h, 100% lung deposition assumed	–	dose remaining in lung	23%
Cc1ccc(-c2ccc(-c3cc4sccc4o3)cn2)nc1	–	MeCN	added: quinine bisulfate reference	–	fluorescence quantum yield	0.6
CC[C@@H](C)N([11CH3])C(=O)c1nc(-c2ccccc2)c2ccccc2n1	ultrafiltration	rhesus monkey, plasma	baseline scan	–	plasma free fraction	0.069 ± 0.004
CC(C)c1cnc(-c2cc(Cl)ccc2F)cc1Nc1ccncc1C(=O)NC(CO)CO	monotherapy, item: blood alkaline phosphatase increased	human patients	oral, dose not given, grade 5, phase I A	–	patients with treatment-related adverse event	0%
CCc1cc(Nc2nc(-c3ccc(-n4cnc(C)c4)c(F)c3)cs2)c(C)cc1C	–	human, both sexes, plasma	oral, 200 mg once daily, day 14, multiple dose, geometric mean	–	terminal elimination rate constant	2.22e-05 s⁻¹
N=C(N)NCCC[C@@H]1NC(=O)[C@H](Cc2c[nH]c3ccccc23)NC(=O)[C@@H](CC2CCCCC2)NC(=O)[C@@H]2CCCN2C(=O)[C@@H](NC(=O)CCc2ccccc2)CCCNC1=O	–	C57BL/6J mice, brain	oral, 1 mg/kg, two-compartment model	–	apparent central volume (V1/F)	0.18 µg/(ng/g)
CN(C)c1cccc2c(S(=O)(=O)NCCCCCCCC(=O)NO)cccc12	fluorescence	–	–	–	emission wavelength	500 nm
NC[C@@H](C(=O)Nc1ccc(-c2cn[nH]c2)cc1)c1ccccc1	OECD 405 eye irritation	New Zealand White rabbit, eye	topical, 0.1%, 72 h (day 4), scale 0 to 3	direction not given	conjunctival redness score	0
[11CH3]c1ccc2nc(C3CCC3)n(-c3ccc4[nH]ncc4c3)c2n1	–	standard human adult, muscle	–	–	absorbed radiation dose	2.1 µSv/MBq

A few entries again:
Compound	test	test system	conditions	scale	endpoint	result
NCCCC(=O)OCC(=O)c1c(F)cc(O)cc1F.O=C(O)C(F)(F)F	photolysis, item: rearranged acid appearance	unbuffered water	–	–	quantum yield	0.15
NCC(=O)N1CCC[C@H]1C(=O)N1C[C@H](O)C[C@H]1C(=O)O	potentiometric titration	–	25 °C, MAH-3 complex, added: Fe(III)	–	log beta	-2.23
